Results gathered from unrelated publications.
Each line is one published result; not all experiments were run side by side. ≈ marks a conversion by molar mass, not a printed value.
UniProt P53355, sequence (whole entry, looked up): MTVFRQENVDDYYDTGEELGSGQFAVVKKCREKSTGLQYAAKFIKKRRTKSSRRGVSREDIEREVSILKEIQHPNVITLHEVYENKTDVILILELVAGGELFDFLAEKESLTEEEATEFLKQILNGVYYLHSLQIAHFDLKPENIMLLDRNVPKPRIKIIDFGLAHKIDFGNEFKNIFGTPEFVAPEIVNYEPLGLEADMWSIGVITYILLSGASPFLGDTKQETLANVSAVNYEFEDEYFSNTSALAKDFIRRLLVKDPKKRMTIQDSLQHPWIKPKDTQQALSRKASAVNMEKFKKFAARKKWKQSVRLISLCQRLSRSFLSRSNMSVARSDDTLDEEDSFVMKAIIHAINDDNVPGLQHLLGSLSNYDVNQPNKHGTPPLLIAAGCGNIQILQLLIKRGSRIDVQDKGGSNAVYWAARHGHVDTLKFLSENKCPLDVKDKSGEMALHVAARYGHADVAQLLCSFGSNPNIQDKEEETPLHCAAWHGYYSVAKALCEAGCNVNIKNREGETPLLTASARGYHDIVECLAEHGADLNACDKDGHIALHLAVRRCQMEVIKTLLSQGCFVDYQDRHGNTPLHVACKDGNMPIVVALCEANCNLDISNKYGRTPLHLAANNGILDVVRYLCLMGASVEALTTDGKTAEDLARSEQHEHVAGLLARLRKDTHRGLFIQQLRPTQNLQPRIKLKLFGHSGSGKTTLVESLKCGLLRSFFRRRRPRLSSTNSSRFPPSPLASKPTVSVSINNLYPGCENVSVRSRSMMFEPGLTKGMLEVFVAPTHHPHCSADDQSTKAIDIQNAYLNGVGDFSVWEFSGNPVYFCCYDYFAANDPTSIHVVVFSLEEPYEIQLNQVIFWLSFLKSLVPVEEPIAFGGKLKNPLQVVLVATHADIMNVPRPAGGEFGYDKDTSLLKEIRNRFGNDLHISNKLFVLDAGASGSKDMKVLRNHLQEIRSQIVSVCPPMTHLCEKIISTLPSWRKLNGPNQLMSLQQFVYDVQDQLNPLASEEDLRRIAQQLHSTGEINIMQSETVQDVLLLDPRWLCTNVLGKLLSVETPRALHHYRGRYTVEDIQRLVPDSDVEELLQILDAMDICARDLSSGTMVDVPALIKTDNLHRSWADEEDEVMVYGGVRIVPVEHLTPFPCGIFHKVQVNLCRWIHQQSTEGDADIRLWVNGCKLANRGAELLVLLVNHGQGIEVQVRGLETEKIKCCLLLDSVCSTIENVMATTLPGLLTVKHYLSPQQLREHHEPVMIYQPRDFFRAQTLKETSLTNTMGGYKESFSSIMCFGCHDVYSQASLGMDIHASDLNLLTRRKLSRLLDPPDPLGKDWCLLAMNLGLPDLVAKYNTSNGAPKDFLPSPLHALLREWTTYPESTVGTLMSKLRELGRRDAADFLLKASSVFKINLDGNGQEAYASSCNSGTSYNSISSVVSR
UniProt P25100, sequence (whole entry, looked up): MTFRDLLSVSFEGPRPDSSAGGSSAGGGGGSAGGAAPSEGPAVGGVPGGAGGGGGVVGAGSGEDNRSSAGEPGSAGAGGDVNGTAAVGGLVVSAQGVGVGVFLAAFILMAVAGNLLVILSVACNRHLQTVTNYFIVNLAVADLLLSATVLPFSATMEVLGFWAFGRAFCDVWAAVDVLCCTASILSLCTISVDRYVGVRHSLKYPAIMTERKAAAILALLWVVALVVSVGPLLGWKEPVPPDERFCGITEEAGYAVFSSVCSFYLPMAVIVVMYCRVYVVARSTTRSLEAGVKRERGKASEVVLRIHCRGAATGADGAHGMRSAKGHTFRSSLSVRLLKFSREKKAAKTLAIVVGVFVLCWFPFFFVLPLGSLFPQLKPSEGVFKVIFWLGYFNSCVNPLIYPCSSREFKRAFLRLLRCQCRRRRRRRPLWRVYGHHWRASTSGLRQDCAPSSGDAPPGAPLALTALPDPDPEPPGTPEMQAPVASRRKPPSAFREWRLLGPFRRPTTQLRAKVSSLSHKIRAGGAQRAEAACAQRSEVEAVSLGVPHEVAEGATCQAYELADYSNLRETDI
UniProt Q12852, sequence (whole entry, looked up): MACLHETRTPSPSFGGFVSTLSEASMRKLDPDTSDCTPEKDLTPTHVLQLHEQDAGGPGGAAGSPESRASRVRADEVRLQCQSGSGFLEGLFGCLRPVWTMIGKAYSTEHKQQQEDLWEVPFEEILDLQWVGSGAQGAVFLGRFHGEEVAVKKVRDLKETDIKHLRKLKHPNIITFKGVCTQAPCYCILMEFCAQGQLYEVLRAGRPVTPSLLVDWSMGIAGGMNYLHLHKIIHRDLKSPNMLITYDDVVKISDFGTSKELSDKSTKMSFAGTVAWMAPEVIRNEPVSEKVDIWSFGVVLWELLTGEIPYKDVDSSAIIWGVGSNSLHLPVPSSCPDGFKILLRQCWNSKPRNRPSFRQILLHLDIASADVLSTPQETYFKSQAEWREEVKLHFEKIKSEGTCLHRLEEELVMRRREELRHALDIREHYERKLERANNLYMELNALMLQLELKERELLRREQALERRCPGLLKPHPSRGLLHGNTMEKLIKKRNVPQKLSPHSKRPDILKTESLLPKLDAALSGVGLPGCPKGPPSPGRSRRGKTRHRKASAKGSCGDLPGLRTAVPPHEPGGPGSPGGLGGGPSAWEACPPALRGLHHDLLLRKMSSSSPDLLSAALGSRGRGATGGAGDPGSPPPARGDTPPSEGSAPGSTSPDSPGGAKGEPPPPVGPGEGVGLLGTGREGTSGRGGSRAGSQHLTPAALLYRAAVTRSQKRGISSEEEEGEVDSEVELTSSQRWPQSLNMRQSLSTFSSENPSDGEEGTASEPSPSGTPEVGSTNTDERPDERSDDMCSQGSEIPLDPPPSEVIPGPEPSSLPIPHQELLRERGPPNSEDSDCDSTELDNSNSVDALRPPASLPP
UniProt O60741, sequence (whole entry, looked up): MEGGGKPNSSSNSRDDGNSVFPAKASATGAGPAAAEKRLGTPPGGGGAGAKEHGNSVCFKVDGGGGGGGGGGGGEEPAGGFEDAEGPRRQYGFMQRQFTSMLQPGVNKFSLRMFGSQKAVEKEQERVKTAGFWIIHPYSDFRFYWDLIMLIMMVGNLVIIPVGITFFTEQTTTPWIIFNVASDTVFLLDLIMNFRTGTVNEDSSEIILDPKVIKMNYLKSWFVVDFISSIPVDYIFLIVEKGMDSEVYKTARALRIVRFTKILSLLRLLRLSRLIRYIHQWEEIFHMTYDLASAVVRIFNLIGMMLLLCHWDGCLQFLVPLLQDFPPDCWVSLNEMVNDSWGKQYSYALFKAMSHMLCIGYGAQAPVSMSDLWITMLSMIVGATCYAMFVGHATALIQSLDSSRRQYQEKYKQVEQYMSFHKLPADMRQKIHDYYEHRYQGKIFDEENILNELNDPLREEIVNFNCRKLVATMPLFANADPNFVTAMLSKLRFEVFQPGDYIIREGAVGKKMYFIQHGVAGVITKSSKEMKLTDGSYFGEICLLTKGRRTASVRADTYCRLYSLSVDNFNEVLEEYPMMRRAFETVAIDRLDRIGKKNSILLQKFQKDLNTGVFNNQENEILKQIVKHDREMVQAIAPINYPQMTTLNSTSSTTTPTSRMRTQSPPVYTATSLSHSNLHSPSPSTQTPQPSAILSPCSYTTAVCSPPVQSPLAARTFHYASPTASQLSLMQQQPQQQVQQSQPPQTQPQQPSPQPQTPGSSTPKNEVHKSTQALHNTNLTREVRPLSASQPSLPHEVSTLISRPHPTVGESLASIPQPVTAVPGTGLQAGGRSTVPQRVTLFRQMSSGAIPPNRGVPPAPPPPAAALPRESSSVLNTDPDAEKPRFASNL
UniProt P28222, sequence (whole entry, looked up): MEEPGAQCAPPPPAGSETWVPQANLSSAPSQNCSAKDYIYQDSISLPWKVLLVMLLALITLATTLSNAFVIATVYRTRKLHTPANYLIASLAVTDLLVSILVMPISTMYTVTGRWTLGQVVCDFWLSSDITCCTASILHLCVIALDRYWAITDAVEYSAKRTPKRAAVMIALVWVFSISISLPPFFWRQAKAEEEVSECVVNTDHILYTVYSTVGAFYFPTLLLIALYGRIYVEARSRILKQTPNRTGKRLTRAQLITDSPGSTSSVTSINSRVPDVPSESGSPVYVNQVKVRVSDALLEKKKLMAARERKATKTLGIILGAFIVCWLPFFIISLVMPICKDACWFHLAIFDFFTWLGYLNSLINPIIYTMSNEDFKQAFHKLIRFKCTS
UniProt P78356, sequence (whole entry, looked up): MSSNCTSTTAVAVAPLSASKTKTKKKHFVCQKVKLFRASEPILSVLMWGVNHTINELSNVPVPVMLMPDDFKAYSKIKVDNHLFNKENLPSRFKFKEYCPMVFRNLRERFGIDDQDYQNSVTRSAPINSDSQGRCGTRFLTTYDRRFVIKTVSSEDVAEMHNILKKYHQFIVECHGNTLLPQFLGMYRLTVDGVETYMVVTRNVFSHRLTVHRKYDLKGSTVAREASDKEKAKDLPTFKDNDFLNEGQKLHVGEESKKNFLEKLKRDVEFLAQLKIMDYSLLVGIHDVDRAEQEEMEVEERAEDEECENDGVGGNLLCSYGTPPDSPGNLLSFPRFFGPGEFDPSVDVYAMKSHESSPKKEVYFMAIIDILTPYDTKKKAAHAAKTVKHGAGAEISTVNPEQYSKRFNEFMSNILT
UniProt P35372, sequence (whole entry, looked up): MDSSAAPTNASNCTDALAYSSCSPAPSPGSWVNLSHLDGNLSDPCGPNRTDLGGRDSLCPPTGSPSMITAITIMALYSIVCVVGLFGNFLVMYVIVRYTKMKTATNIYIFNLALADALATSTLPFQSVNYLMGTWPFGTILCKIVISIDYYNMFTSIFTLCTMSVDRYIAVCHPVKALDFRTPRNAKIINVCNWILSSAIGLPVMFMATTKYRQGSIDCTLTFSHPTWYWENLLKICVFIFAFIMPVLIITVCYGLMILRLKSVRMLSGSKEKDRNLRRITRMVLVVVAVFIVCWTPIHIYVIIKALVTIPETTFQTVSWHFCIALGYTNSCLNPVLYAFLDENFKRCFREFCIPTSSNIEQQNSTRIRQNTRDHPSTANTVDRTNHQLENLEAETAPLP

| Structure (SMILES) | target or system | assay | test system | setting | quantity | result |
| --- | --- | --- | --- | --- | --- | --- |
| CC(C)CC(=O)OC[C@H]1O[C@@](C#N)(c2ccc3c(N)ncnn23)[C@H](O)[C@@H]1O | 5-hydroxytryptamine receptor 1B (HTR1B, Homo sapiens, UniProt P28222) | cell-free assay |  | 20 µM | inhibition | 6% |
| CN1CCC[C@H]1c1cccnc1 | Alpha-1D adrenergic receptor (ADRA1D, Homo sapiens, UniProt P25100) | ligand displacement |  | 50 µM | inhibition | -19.2% |
| Cn1c(=O)c2[nH]cnc2n(C)c1=O | Potassium/sodium hyperpolarization-activated cyclic nucleotide-gated channel 1 (Homo sapiens, UniProt O60741) | ion current, inhibitor |  | 3 µM | inhibition | 14% |
| COc1ncccc1-c1cnn2ccc(N3CCN(C(=O)OC(C)C)CC3)nc12 | Mitogen-activated protein kinase kinase kinase 12 (MAP3K12, Homo sapiens, UniProt Q12852) | binding, competition with immobilised ligand |  | 1 µM | remaining binding | 100% |
| Cc1nn(C)cc1-c1nc2c(N3CCN(Cc4ccc(Cl)cc4)CC3)c(Cl)cnc2[nH]1 | Phosphatidylinositol 5-phosphate 4-kinase type-2 beta (PIP4K2B, Homo sapiens, UniProt P78356) | binding, competition with immobilised ligand |  | 1 µM | remaining binding | 28% |
| CC(C)C[C@H](NC(=O)[C@H](Cc1ccccc1)NC(=O)[C@H](Cc1ccccc1)NC(=O)Cc1ccc(-c2ccccc2)cc1)C(=O)N[C@@H](CCCCN)C(=O)N[C@@H](CCCNC(=N)N)C(=O)N[C@H](C(=O)N[C@@H](Cc1c[nH]c2ccccc12)C(=O)N[C@@H](CCCCN)C(=O)N[C@@H](CCCNC(=N)N)C(=O)O)C(C)C |  | metabolic stability | mouse, liver microsomes | 1 µM | half-life | 0.0673 h |
| C#Cc1n[nH]c2c(-c3cn([C@@H](C)c4ccccn4)c(=O)[nH]c3=O)cc(F)cc12 | Serine/threonine-protein kinase mTOR (MTOR, Homo sapiens, UniProt P42345) | enzyme activity, inhibitor |  | 0.1 µM | inhibition | 10.4% |
| N.N.[Cl][Pt][Cl] | OCI-Ly3 | cell growth or viability, ATP luminescence |  | 10 µM, 72 h | inhibition | 100% |
| N=c1c2c(-c3ccccc3)c(-c3ccccc3)n(Cc3ccccc3)c2ncn1[C@H]1CC[C@H](O)CC1 |  |  | male cynomolgus monkey, plasma | oral, 1 mg/kg, single dose | half-life | 48.6 h |
| C#Cc1ccc2c(c1)C(c1ccccn1)=NCc1c(-c3cnco3)ncn1-2 |  |  | water | 10 min, 37 °C | kinetic solubility | 174 µg/mL (≈ 495 µM) |
| [2H]c1c([2H])c([C@]2([2H])CCCN2C(=O)C(C)(C)Oc2ccc3cn[nH]c3c2)c([2H])c([2H])c1C([2H])([2H])[2H] | Death-associated protein kinase 1 (DAPK1, Homo sapiens, UniProt P53355) | binding, competition with immobilised ligand |  | 1 µM | remaining binding | 69% |
| Nc1ncc(-c2nc(N3CCOCC3)nc(N3CCOCC3)n2)c(C(F)F)n1 | Receptor-type tyrosine-protein kinase FLT3 (FLT3, Homo sapiens, UniProt P36888, K663Q) | binding, competition with immobilised ligand |  | 10 µM | remaining binding | 48% |
| Oc1cccc(N2C[C@H]3CC[C@@H](C2)N3CCCc2ccccc2)c1 | Mu-type opioid receptor (OPRM1, Homo sapiens, UniProt P35372) | cAMP, agonist | OPRM1 |  | Emax | 99.7% |

A few entries again:
| Structure (SMILES) | target or system | assay | test system | setting | quantity | result |
| --- | --- | --- | --- | --- | --- | --- |
| CC(C)CC(=O)OC[C@H]1O[C@@](C#N)(c2ccc3c(N)ncnn23)[C@H](O)[C@@H]1O | 5-hydroxytryptamine receptor 1B (HTR1B, Homo sapiens, UniProt P28222) | cell-free assay |  | 20 µM | inhibition | 6% |
